Published values from different studies.
Parts stem from different laboratories: compare values within a part only. Several values in a cell are separate wells, animals, samples, runs or records.

Sample 1
Target: 5-hydroxytryptamine receptor 1B (HTR1B, Homo sapiens, UniProt P28222)
UniProt P28222, sequence (whole entry, looked up): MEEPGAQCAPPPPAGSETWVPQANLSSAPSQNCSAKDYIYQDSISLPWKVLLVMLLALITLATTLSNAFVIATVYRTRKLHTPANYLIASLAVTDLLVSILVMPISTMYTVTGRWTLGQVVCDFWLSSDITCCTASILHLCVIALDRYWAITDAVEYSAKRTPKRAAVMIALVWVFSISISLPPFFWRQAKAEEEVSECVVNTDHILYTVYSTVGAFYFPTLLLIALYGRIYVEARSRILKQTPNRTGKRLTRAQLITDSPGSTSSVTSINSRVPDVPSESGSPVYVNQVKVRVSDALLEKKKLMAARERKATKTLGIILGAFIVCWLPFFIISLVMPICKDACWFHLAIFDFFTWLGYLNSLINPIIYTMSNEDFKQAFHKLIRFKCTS
Effect on: ligand displacement
Technique: radioligand
Tested at: 10 µM
Measurement: inhibition
CC(C)CC(=O)N1CCc2nc(-c3ccc(Br)cc3)nc(N(C)Cc3ccccc3)c2C1: 12.9%
CNCc1ccccc1-c1csc([C@H](C)Nc2nc(C)nc3cc(OC)c(OC)cc23)c1: 75%
O=C(O)[C@H]1[C@H](Cn2nnc3ccccc3c2=O)CC[C@@H]1C(=O)c1ccc(OCCC2CCOCC2)cc1: 11.5%
CN1CCN(C(=O)C(C)(C)c2ccc(C(=O)Nc3cn4cc(-c5ccncc5)ccc4n3)cc2)CC1: 7.83%
CCOCCn1cc(C(=O)Nc2ccc(-n3nc(-c4cccnc4)cc3C(F)(F)F)cn2)ccc1=O: 18.8%
CN(C)CC#Cc1ccc(OCCCc2sc(N3CCc4cccc(C(=O)Nc5nc6ccccc6s5)c4C3)nc2C(=O)O)c(F)c1: 20.2%
Cc1cc(NC(=O)c2cccc(S(F)(F)(F)(F)F)c2)cc(-n2ccn3nc(-c4cccnc4)cc23)c1: -1.66%
Cc1c[nH]c2nccc(Oc3c(F)cc(Nc4cc(Cl)nc(N)n4)cc3F)c12: -5.28%

Sample 2
Target: Protein-tyrosine kinase 2-beta (PTK2B, Homo sapiens, UniProt Q14289)
UniProt Q14289, sequence (whole entry, looked up): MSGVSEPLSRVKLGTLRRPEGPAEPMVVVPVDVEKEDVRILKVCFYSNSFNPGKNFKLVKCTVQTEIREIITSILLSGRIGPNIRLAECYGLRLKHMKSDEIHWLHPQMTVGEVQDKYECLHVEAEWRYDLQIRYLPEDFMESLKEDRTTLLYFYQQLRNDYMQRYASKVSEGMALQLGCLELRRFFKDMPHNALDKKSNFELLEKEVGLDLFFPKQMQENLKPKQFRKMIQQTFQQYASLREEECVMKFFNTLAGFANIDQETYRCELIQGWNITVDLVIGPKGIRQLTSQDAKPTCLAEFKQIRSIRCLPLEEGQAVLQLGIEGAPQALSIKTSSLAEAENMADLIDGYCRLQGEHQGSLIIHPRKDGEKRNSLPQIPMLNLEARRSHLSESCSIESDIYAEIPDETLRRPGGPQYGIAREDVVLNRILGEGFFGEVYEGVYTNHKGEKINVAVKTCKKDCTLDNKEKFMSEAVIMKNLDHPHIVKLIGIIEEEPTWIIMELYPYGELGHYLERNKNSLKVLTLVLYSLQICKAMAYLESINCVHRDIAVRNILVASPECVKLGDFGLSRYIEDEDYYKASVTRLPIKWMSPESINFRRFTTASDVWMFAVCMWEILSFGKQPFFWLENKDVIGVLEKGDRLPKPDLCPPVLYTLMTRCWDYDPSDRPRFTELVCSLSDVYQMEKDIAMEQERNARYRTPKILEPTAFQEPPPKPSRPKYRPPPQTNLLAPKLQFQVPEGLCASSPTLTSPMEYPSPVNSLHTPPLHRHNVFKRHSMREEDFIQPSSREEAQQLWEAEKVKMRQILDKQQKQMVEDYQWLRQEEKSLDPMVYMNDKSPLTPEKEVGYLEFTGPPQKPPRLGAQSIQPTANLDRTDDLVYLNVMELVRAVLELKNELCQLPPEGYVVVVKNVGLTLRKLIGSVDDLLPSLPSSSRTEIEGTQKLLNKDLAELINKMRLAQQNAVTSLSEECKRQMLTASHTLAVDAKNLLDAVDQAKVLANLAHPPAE
Effect on: enzyme activity
Action: inhibitor
Tested at: 0.5 µM
Baseline: control
Measurement: remaining activity
CCCCc1c(-c2ccc(OC)cc2)[nH]c2nccnc12: 100%
N#C/C(=C(/N)SC1C=CC=CC1)c1cccc(C(O)c2ccncc2)c1 (stereo not drawn): 96.2%
O=Nc1c(-c2c(O)[nH]c3ccccc23)[nH]c2ccccc12: 65.8%
c1ccc(-c2n[nH]c3c2oc2ccccc23)cc1: 96.8%
FC(F)(F)c1ccc(/C=C/c2nc(COc3ccc(CCCCn4ccnn4)cc3)co2)cc1: 103%
O=C1Cc2c([nH]c3ccc(Br)cc23)-c2ccccc2N1: 102%
O=Nc1c(-c2c(O)[nH]c3cc(Br)ccc23)[nH]c2ccccc12: 56.7%
c1ccc2c(-c3ccncc3)c[nH]c2c1: 95.3%
CN1CCN(c2ccc3nc(-c4c(N)c5c(F)cccc5[nH]c4=O)[nH]c3c2)CC1: 84.3%
O=C1NC(=O)c2c1c1c3ccccc3[nH]c1c1[nH]c3cc(Br)ccc3c21: 79.5%
O=C1c2ccccc2-c2nc3nnnn3nc21: 52.1%
CCCCc1c(-c2ccc(O)cc2)[nH]c2nccnc12: 99%
c1cc(-c2cnn3cc(-c4ccc(OCCN5CCCCC5)cc4)cnc23)ccn1: 106%
N#CC(c1ccnc(NCCc2cccnc2)n1)c1nc2ccccc2s1 (stereo not drawn): 98.7%
CCCNC(=O)Nc1ccc(Oc2ncnc3cc(OC)c(OC)cc23)cc1Cl: 88%
Nc1nc(Nc2ccc(S(N)(=O)=O)cc2)nn1C(=S)Nc1c(F)cccc1F: 33.6%
CC(C)N(CCC(=O)c1ccc2ccccc2c1)Cc1ccccc1: 106%
CC(C)(C)c1nc2c3cc[nH]c(=O)c3c3cc(F)ccc3c2[nH]1: 48.4%
O=C(O)/C=C/c1cc(Br)c(Br)c(Br)c1Br: 93.3%
Cc1ccc(S(=O)(=O)/C=C/C#N)cc1: 92.8%
CC(C)n1cnc2c(Nc3cccc(Cl)c3)nc(NCCO)nc21: 85%
CN(C)S(=O)(=O)c1ccc2c(c1)/C(=C/c1cc3c([nH]1)CCCC3)C(=O)N2: 52.6%
COc1ccc(COc2ccc(Cc3cnc(N)nc3N)cc2OC)cc1: 86.1%
NC(=O)c1ccc(-c2nc(-c3ccc4c(c3)OCCO4)c(-c3ccccn3)[nH]2)cc1: 101%
N#Cc1cnc2cnc(NCc3cccnc3)cc2c1Nc1ccc(F)c(Cl)c1: 100%

Sample 3
Technique: PRP chromatography
Setting: linear fit, 1 mL
Measurement: logD 1,9-decadiene/water
CC(C)C[C@@H]1NC(=O)[C@H](CC(C)C)NC(=O)[C@H](CC(C)C)NC(=O)[C@H](Cc2cscn2)NC(=O)[C@@H](CCC(=O)N2CCCC2)NC(=O)[C@H](Cc2cscn2)NC(=O)[C@H](C)NC1=O: -1.33 log units
CC(C)C[C@@H]1NC(=O)[C@H](C)NC(=O)[C@H](CC(C)C)NC(=O)[C@@H](CC(C)C)NC(=O)[C@H](CC(C)C)NC(=O)[C@@H](C)NC(=O)[C@@H](CC(C)C)NC1=O: -0.292 log units
CC(C)C[C@@H]1NC(=O)[C@H](CC(C)C)NC(=O)[C@@H](C(C)C)NC(=O)[C@H](CC(C)C)NC(=O)[C@@H](Cc2cscn2)NC(=O)[C@H](CCC(=O)N2CCCC2)NC(=O)[C@H](C)NC1=O: -3 log units
CC(C)C[C@@H]1NC(=O)[C@H](CC(C)C)NC(=O)[C@@H](C(C)C)NC(=O)[C@H](C(C)C)NC(=O)[C@H](C(C)C)NC(=O)[C@H](C)NC(=O)[C@H](C)NC1=O: -1.84 log units
CC(C)C[C@@H]1NC(=O)[C@H](CC(C)C)NC(=O)[C@@H](CC(C)C)NC(=O)[C@H](C(C)C)NC(=O)[C@@H](CCC(=O)N2CCCC2)NC(=O)[C@H](C)NC(=O)[C@H](C)NC1=O: -2.74 log units
CC(C)C[C@@H]1NC(=O)[C@H](Cc2cscn2)NC(=O)[C@H](CCC(=O)N2CCCC2)NC(=O)[C@H](C)NC(=O)[C@@H](CCC(=O)N2CCCC2)NC(=O)[C@H](CC(C)C)NC(=O)[C@@H](CC(C)C)NC1=O: -4.42 log units
CC(C)C[C@@H]1NC(=O)[C@H](CC(C)C)NC(=O)[C@H](CC(C)C)NC(=O)[C@H](C(C)C)NC(=O)[C@H](C)NC(=O)[C@H](CCC(=O)N2CCCC2)NC(=O)[C@H](C)NC1=O: -1.84 log units

Sample 4
Cell line: A-375
Tested at: 100 µM
Time: 36 h
Measurement: viability
COc1cc2nc(N(C)CCCNC(=O)C3CCCO3)nc(N)c2cc1OC (stereo not drawn): 88.4%
CO[C@@]1(NC(=O)CSCC#N)C(=O)N2C(C(=O)O)=C(CSc3nnnn3C)CS[C@@H]21: 100%
O=P(O)(O)C(O)(Cn1ccnc1)P(=O)(O)O: 79.2%
CCCNS(=O)(=O)Nc1ncnc(OCCOc2ncc(Br)cn2)c1-c1ccc(Br)cc1: 71.9%
CN(C)c1ccc(C(=C2C=CC(=[N+](C)C)C=C2)c2ccc(N(C)C)cc2)cc1: 5.91%
O=c1[nH]c(=O)n(C2CCCO2)cc1F (stereo not drawn): 101%
CC1(C)S[C@@H]2[C@H](NC(=O)COc3ccccc3)C(=O)N2[C@H]1C(=O)O: 92.1%
CC(C)C[C@H](NC(=O)CNC(=O)c1cc(Cl)ccc1Cl)B1OC(=O)C(CC(=O)O)(CC(=O)O)O1: 5.12%
S=C1SCN(Cc2ccccc2)CN1Cc1ccccc1: 38.1%
O=C1Nc2ccc(Cl)cc2[C@@](C#CC2CC2)(C(F)(F)F)O1: 1.73%

Sample 5
Cell line: mouse MPNST tumor cells
Technique: high-content nuclear imaging
Measured: cell number
Tested at: 10 µM
Time: 12 h
Setting: mean of 2 replicates
Baseline: plate mean
Reading: higher = more cells
Measurement: nuclei count
O=C(O)c1cnccn1: 1.43 z-score
O=C(O)c1ccc(S(=O)(=O)N(Cc2ccc(OC(F)(F)F)cc2)c2ncc(C(F)(F)F)cc2Cl)cc1: 2.36 z-score
CC(C)Oc1ccc2c(=O)c(-c3ccccc3)coc2c1: 1.14 z-score
Cc1c(N(C)C)c(=O)n(-c2ccccc2)n1C: 3.1 z-score
COC(=O)Nc1nc2ccc(SC(C)C)cc2[nH]1: -3.12 z-score
CCC(Cc1c(I)cc(I)c(N)c1I)C(=O)O (stereo not drawn): 0.879 z-score
O=C1OCCN1/N=C/c1ccc([N+](=O)[O-])o1: 0.648 z-score and 1.54 z-score

Some of these lines once more (sample 2):
c1ccc2c(-c3ccncc3)c[nH]c2c1: 95.3%
CN1CCN(c2ccc3nc(-c4c(N)c5c(F)cccc5[nH]c4=O)[nH]c3c2)CC1: 84.3%
O=C1NC(=O)c2c1c1c3ccccc3[nH]c1c1[nH]c3cc(Br)ccc3c21: 79.5%
O=C1c2ccccc2-c2nc3nnnn3nc21: 52.1%
CCCCc1c(-c2ccc(O)cc2)[nH]c2nccnc12: 99%
c1cc(-c2cnn3cc(-c4ccc(OCCN5CCCCC5)cc4)cnc23)ccn1: 106%
